Measurements collected from several papers.
Compare with care: the assays were run in different laboratories. ± gives the spread as reported.
Technique: steady-state kinetics
B1: enzyme (Halalkalibacterium halodurans, UniProt Q9KCN8); chain MLNVTQLQEATTFIQQQIETKPTIGLILGSGLGILADEIEQPVKVPYSDIPHFPVSTVQGHAGQLVIGMLEGKQVIAMQGRFHFYEGYSLEVVTFPVRVMKALGVEQIIVTNAAGGVNESFEAGDLMIIRDHINNMAQNPLIGPNDEAFGVRFPDMSNAYSERLRTLAKEKGNTLNLKLQEGVYVANTGPVYETPAEVRMIRKLGGDAVGMSTVPEVIVARHAGLEVLGISCISNMAAGILPQPLSHDEVIETTERVRQDFLNLVKAIVKDM
B2: Tcur_2987 W263A (Thermomonospora curvata, UniProt D1A807); chain ACSEERAAGARPSATQTTGTATEPFHGPHQAGIATPPQAHAVFLGLDLRKGTGRKELGRLMRLLTDDARRLTQGRPALADPEPDLAPLPSRLTFTFGFGPGLFKAAGLEKQRPEGLRPLPPFKVDRLEDRWSGGDLLVQICCDDPITLAHALRMTVKDARAFTRVRWVQRGFRRSPGVQSSGATQRNLMGQLDGTVNPVPGTADFDQAVWVQDGPEWLRGGTTLVLRRIRMELEKADEADPAGKEFAVGRRLTSGAPLTGRHEHDEPDFDAVDSAGFPVIAENAHIRLAHVDSPRLRMLRRPYNYDEGLTADGRSDAGLLFAAYQADIDRQFIPVQRRLDEGGDLLNLWTTPIGSAVFAIPPGCDENGWIGQGLLG
B3: cyc1 A236G (Streptomyces coelicolor, UniProt Q9K499); chain MHAFPHGTTATPTAIAVPPSLRLPVIEAAFPRQLHPYWPKLQETTRTWLLEKRLMPADKVEEYADGLCYTDLMAGYYLGAPDEVLQAIADYSAWFFVWDDRHDRDIVHGRAGAWRRLRGLLHTALDSPGDHLHHEDTLVAGFADSVRRLYAFLPATWNARFARHFHTVIEAYDREFHNRTRGIVPGVEEYLELRRLTFAHWIWTDLLEPSSGCELPDAVRKHPAYRRAALLSQEFGAWYNDLCSLPKEIAGDEVHNLGISLITHHSLTLEEAIGEVRRRVEECITEFLAVERDALRFADELADGTVRGKELSGAVRANVGNMRNWFSSVYWFHHESGRYMVDSWDDRSTPPYVNNEAAGEK
B4: UGT84B1 (Arabidopsis thaliana, UniProt O22182); chain MGSSEGQETHVLMVTLPFQGHINPMLKLAKHLSLSSKNLHINLATIESARDLLSTVEKPRYPVDLVFFSDGLPKEDPKAPETLLKSLNKVGAMNLSKIIEEKRYSCIISSPFTPWVPAVAASHNISCAILWIQACGAYSVYYRYYMKTNSFPDLEDLNQTVELPALPLLEVRDLPSFMLPSGGAHFYNLMAEFADCLRYVKWVLVNSFYELESEIIESMADLKPVIPIGPLVSPFLLGDGEEETLDGKNLDFCKSDDCCMEWLDKQARSSVVYISFGSMLETLENQVETIAKALKNRGLPFLWVIRPKEKAQNVAVLQEMVKEGQGVVLEWSPQEKILSHEAISCFVTHCGWNSTMETVVAGVPVVAYPSWTDQPIDARLLVDVFGIGVRMRNDSVDGELKVEEVERCIEAVTEGPAAVDIRRRAAELKRVARLALAPGGSSTRNLDLFISDITIA
B5: putA N1014A (Rhodobacter capsulatus, UniProt D5AN87); chain MTDLSALGPKAKFAPEAEVLQALVAQAALPQPQLDRIAARGADLVARIRAEAKPSLMEHFLAQYGLSTREGVALMCLAEAMLRVPDTATIDALIEDKIAPSDWGKHLGTAASSLVNASTWALMLTGKVLDDGAGGIAGTLRGAMRRLGEPVIRAAVGQAMREMGRQFVLGETIEKALERAEKREAEGYTFSYDMLGEAALTAADAERYRLAYAQAITAIGKAATRGSIAANPGISIKLSALHPRYEVAQEARVMAELVPVVRDLARAAARAGIALHIDAEEQDRLALSLRVMAAVIADPETAGWEGFGAVVQAYGKRAGAAIDALAAMARAAGRRINIRLVKGAYWDAEMKRAQVEGHPGFPLFTSKTGTDVAYICLAAKLFGLNDCIYPQFATHNAHTVAAVLEMAAGRPFEFQRLHGMGARLHDIVLRETGGRCRIYAPVGAHRDLLAYLVRRLLENGANSSFVNQIVNESVPPAEVAACPFAALPTARAPRGLLAPADLFGAGRVNAQGFDLSDPEVLARIEAARDVTLPDAAPIVAGPVSGTLRPVRNPATGAVVAQVTEADAATVALALDAAQVWSAPAATRAAVLCRAADLYEENFGPIFAALAQEAGKTLGDAVSELREAVDFLRYYAAEGAADTRPPRGAVVAISPWNFPLAIFTGQVAAALMAGNAVLAKPAEQTPIIAALAVRLLHQAGVPETALQLLPGDGPTVGAALTRDPRVAGVVFTGSTETAQIIARAMAAHLAPGTPLIAETGGLNAMVVDSTALPEQAVRDVVASAFRSAGQRCSALRCLYVQDDIAPHLIGMLKGAMEELVSGDPARLSTDVGPVIDAEAKAGIETYLAANKARILHRSTAPEGGHFVAPALLQVGGIADLEREIFGPVLHLATFAAEDLPAVIAAINARGYGLTFGLHSRIDARVETVAETIRAGNIYVNRNQIGAVVGSQPFGGEGLSGTGPKAGGPLYLNRFYAPEPVVAVGGWTEAATPILPEARETQLDEIFLPGPTGELARLTRHQRGPILCLGPGAEAASAQAAAVVALGGQAVQASGAVSPKALETLTPLAGVLWWGAAEMGRAYAQALAVRPGPLVPLITAKPDLAHVAHERHLCVDTTAAGGNAALLAG
B6: enzyme A178R/D177A/P184R (Levilactobacillus brevis, UniProt Q03Q85); chain MKVTVVGCTHAGTFAIKQILAEHPDAEVTVYERNDVISFLSCGIALYLGGKVADPQGLFYSSPEELQKLGANVQMNHNVLAIDPDQKTVTVEDLTNHAQTTESYDKLVMTSGSWPIVPKIPGIDSDRVKLCKNWAHAQALIEDAKEAKRITVIGAGYIGAELAEAYSTTGHDVTLIARMARVMRKYFDADFTDVIEQDYRDHGVQLALGETVESFTDSATGLTIKTDKNSYETDLAILCIGFRPNTDLLKGKVDMAPNGAIITDDYMRSSNPDIFAAGDSAAVHYNPTHQNAYIPLATNAVRQGILVGKNLVKPTVKYMGTQSSSGLALYDRTIVSTGLTLAAAKQQGLNAEQVIVEDNYRPEFMPSTEPVLMSLVFDPDTHRILGGALMSKYDVSQSANTLSVCIQNENTIDDLAMVDMLFQPNFDRPFNYLNILAQAAQAKVAQSVNA
B7: POLK W214Y/W392H (Homo sapiens, UniProt Q9UBT6); chain MGLNDNKAGMEGLDKEKINKIIMEATKGSRFYGNELKKEKQVNQRIENMMQQKAQITSQQLRKAQLQVDRFAMELEQSRNLSNTIVHIDMDAFYAAVEMRDNPELKDKPIAVGSMSMLSTSNYHARRFGVRAAMPGFIAKRLCPQLIIVPPNFDKYRAVSKEVKEILADYDPNFMAMSLDEAYLNITKHLEERQNYPEDKRRYFIKMGSSVENDNPGKEVNKLSEHERSISPLLFEESPSDVQPPGDPFQVNFEEQNNPQILQNSVVFGTSAQEVVKEIRFRIEQKTTLTASAGIAPNTMLAKVCSDKNKPNGQYQILPNRQAVMDFIKDLPIRKVSGIGKVTEKMLKALGIITCTELYQQRALLSLLFSETSHHYFLHISLGLGSTHLTRDGERKSMSVERTFSEINKAEEQYSLCQELCSELAQDLQKERLKGRTVTIKLKNVNFEVKTRASTVSSVVSTAEEIFAIAKELLKTEIDADFPHPLRLRLMGVRISSFPNEEDRKHQQ
B8: ALDH4A1 S352A (Homo sapiens, UniProt P30038); chain TGAGLRWKHTSSLKVANEPVLAFTQGSPERDALQKALKDLKGRMEAIPCVVGDEEVWTSDVQYQVSPFNHGHKVAKFCYADKSLLNKAIEAALAARKEWDLKPIADRAQIFLKAADMLSGPRRAEILAKTMVGQGKTVIQAEIDAAAELIDFFRFNAKYAVELEGQQPISVPPSTNSTVYRGLEGFVAAISPFNFTAIGGNLAGAPALMGNVVLWKPSDTAMLASYAVYRILREAGLPPNIIQFVPADGPLFGDTVTSSEHLCGINFTGSVPTFKHLWKQVAQNLDRFHTFPRLAGECGGKNFHFVHRSADVESVVSGTLRSAFEYGGQKCSACARLYVPHSLWPQIKGRLLEEHSRIKVGDPAEDFGTFFSAVIDAKSFARIKKWLEHARSSPSLTILAGGKCDDSVGYFVEPCIVESKDPQEPIMKEEIFGPVLSVYVYPDDKYKETLQLVDSTTSYGLTGAVFSQDKDVVQEATKVLRNAAGNFYINDKSTGSIVGQQPFGGARASGTNDKPGGPHYILRWTSPQVIKETHKPLGDWSYAYMQ
B9: DCXR (Homo sapiens, UniProt Q7Z4W1); chain MELFLAGRRVLVTGAGKGIGRGTVQALHATGARVVAVSRTQADLDSLVRECPGIEPVCVDLGDWEATERALGSVGPVDLLVNNAAVALLQPFLEVTKEAFDRSFEVNLRAVIQVSQIVARGLIARGVPGAIVNVSSQCSQRAVTNHSVYCSTKGALDMLTKVMALELGPHKIRVNAVNPTVVMTSMGQATWSDPHKAKTMLNRIPLGKFAEVEHVVNAILFLLSDRSGMTTGSTLPVEGGFWAC
B10: alanine racemase H127A/H166A/H200A (Geobacillus stearothermophilus, UniProt P10724); chain MNDFHRDTWAEVDLDAIYDNVENLRRLLPDDTHIMAVVKANAYGHGDVQVARTALEAGASRLAVAFLDEALALREKGIEAPILVLGASRPADAALAAQQRIALTVFRSDWLEEASALYSGPFPIHFALKMDTGMGRLGVKDEEETKRIVALIERHPHFVLEGLYTAFATADEVNTDYFSYQYTRFLHMLEWLPSRPPLVACANSAASLRFPDRTFNMVRFGIAMYGLAPSPGIKPLLPYPLKEAFSLHSRLVHVKKLQPGEKVSYGATYTAQTEEWIGTIPIGYADGWLRRLQHFHVLVDGQKAPIVGRICMDQCMIRLPGPLPVGTKVTLIGRQGDEVISIDDVARHLETINYEVPCTISYRVPRIFFRHKRIMEVRNAIGRGESSA
UniProt P07914, sequence (whole entry, looked up): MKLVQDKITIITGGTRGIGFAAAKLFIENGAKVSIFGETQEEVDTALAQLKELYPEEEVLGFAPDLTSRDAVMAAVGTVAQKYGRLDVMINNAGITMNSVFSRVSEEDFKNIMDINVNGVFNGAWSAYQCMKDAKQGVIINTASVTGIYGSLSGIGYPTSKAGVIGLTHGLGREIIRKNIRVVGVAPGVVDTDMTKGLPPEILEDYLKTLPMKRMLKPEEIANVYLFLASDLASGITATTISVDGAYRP

Substance | substrate | conditions | kcat [s⁻¹]
B1 (enzyme) | OC[C@H]1O[C@@H](n2cnc3c(O)ncnc32)[C@H](O)[C@@H]1O | – | 28000
B2 (Tcur_2987 W263A) | Nc1c(S(=O)(=O)O)cc(Nc2cccc(S(=O)(=O)CCOS(=O)(=O)O)c2)c2c1C(=O)c1ccccc1C2=O | pH 3, sigmoidal kinetics, together with: H2O2 1 mM | 52 ± 1
B3 (cyc1 A236G) | CC(C)=CCC/C(C)=C/CC/C(C)=C/CO[P@@](=O)(O)OP(=O)(O)O | pH 6.5, 30 °C, together with: MgCl2 10 mM | 0.066 ± 0.002
enzyme (UniProt A0A7J5BGR1) | C=CCc1ccc(O)c(OC)c1 | pH 8, 25 °C | 0.75
AphC (Rhodococcus jostii, UniProt Q0S9X1) | CCCc1ccc(O)c(O)c1 | pH 8, 25 °C, apparent, together with: O2 | 0.205
B4 (UGT84B1) | O=C(O)Cc1c[nH]c2ccccc12 | pH 7.5, 30 °C, together with: UDP-glucose 4 mM, MgSO4 2.5 mM | 0.00167 ± 0.000167
BaiA1 (Clostridium scindens, UniProt P07914) | NC(=O)c1ccc[n+]([C@@H]2O[C@H](COP(=O)(O)OP(=O)(O)OC[C@H]3O[C@@H](n4cnc5c(N)ncnc54)[C@H](OP(=O)(O)O)[C@@H]3O)[C@@H](O)[C@H]2O)c1 | pH 8.7, 37 °C, cofactor varied, together with: glycocholic acid 1.4 mM | 0.113
B5 (putA N1014A) | O=C(O)[C@@H]1CCCN1 | pH 8, 23 °C | 4.8 ± 0.2
B6 (enzyme A178R/D177A/P184R) | NC(=O)C1=CN([C@@H]2O[C@H](COP(=O)(O)OP(=O)(O)OC[C@H]3O[C@@H](n4cnc5c(N)ncnc54)[C@H](OP(=O)(O)O)[C@@H]3O)[C@@H](O)[C@H]2O)C=CC1 | pH 7.5, 37 °C, per site | 178 ± 67
B7 (POLK W214Y/W392H) | Nc1ccn([C@H]2C[C@H](O)[C@@H](COP(=O)(O)OP(=O)(O)OP(=O)(O)O)O2)c(=O)n1 | pH 7.5, 23 °C, MgCl2 5 mM, together with: G template | 0.017 ± 0.003
B8 (ALDH4A1 S352A) | O=C(O)[C@@H]1CCC=N1 | pH 7, 20 °C, value for L-P5C, together with: NAD+ | 5
B9 (DCXR) | CC(=O)C(C)=O | pH 7, together with: NADPH 200 µM | 5.8
B10 | C[C@@H](N)C(=O)O | pH 9, room temperature, together with: NAD+ 10 mM | 0.28
alanine aminopeptidase (Neisseria meningitidis, UniProt Q9JYV4) | NC(=O)Cc1cc(=O)oc2cc(NC(=O)[C@@H](N)C3Cc4ccccc4C3)ccc12 | pH 7.5, 37 °C | 1.72 ± 0.08
